Measurements collected from several papers.
Each numbered part is a random draw from the data of one study; scales do not carry over between parts. Positions count from the first letter of the parent shown.

Sample 1 — target: CCNF, cyclin fold, Cln2 fusion (human); technique: yeast growth competition, sequencing; matrix: yeast; setting: strong parent motif; reference: not given; reading: higher = stronger binding
Starting sequence: SLBP docking peptide (human); ARYKRKLLINDFG
For `ARLKRKLLINDFG [Y3L]`, “normalised enrichment score” read 2.26.
`ARYKRKLLINIFG [D11I]` — result for “normalised enrichment score”: 2.55.
For `ARYKRRLLINDFG [K6R]`, “normalised enrichment score” read 0.942.
`ARYKYKLLINDFG [R5Y]` — result for “normalised enrichment score”: 0.763.
For `ARKKRKLLINDFG [Y3K]`, “normalised enrichment score” read -0.0967.
`ARYKRKLLIADFG [N10A]` — result for “normalised enrichment score”: 1.93.
For `LRYKRKLLINDFG [A1L]`, “normalised enrichment score” read 1.63.
`ARYKRKLLINDYG [F12Y]`: “normalised enrichment score” 1.81.
For `HRYKRKLLINDFG [A1H]`, “normalised enrichment score” read 2.35.
`ARYKRKLLIGDFG [N10G]`: “normalised enrichment score” 2.85.
Under “normalised enrichment score”, `ARYKRKWLINDFG [L7W]` is recorded as 1.44.
For `ARYKRKLLIMDFG [N10M]`, “normalised enrichment score” read 2.07.
Under “normalised enrichment score”, `ARYKRKLLGNDFG [I9G]` is recorded as 1.79.
`ARYKRKGLINDFG [L7G]`: “normalised enrichment score” 0.736.
`ARYKRKLLIPDFG [N10P]` — result for “normalised enrichment score”: 2.49.
`ACYKRKLLINDFG [R2C]`: “normalised enrichment score” 0.884.
Under “normalised enrichment score”, `AEYKRKLLINDFG [R2E]` is recorded as 1.33.
For `ARYKRKLLIWDFG [N10W]`, “normalised enrichment score” read 2.41.
For `ARYKRKALINDFG [L7A]`, “normalised enrichment score” read 0.726.
`ALYKRKLLINDFG [R2L]` — result for “normalised enrichment score”: 0.944.
For `ARYKRSLLINDFG [K6S]`, “normalised enrichment score” read 0.987.
`ARYDRKLLINDFG [K4D]`: “normalised enrichment score” 0.11.
Under “normalised enrichment score”, `ARYKRKLLWNDFG [I9W]` is recorded as 2.13.
`ARYKRWLLINDFG [K6W]` — result for “normalised enrichment score”: 2.75.
`GRYKRKLLINDFG [A1G]`: “normalised enrichment score” 1.86.

Sample 2 — technique: protein binding microarray; molecule type: double-stranded DNA, one strand shown; matrix: in vitro; tested at: not given; reference: not given; reading: higher = stronger binding
Target: Histone acetyltransferase KAT6A, winged helix 2, GST fusion (KAT6A, Homo sapiens, UniProt Q92794, residues 85-181)
Setting: 8-mer, flanks averaged, mean of 2 arrays, mostly near background
Construct (chain): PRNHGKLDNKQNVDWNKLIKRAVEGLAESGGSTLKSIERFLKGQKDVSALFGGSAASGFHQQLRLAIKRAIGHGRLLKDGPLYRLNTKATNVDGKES
`AGCCGGCC` has an E-score of 0.187.
`CACGACCG` gave an E-score of -0.0751.
`TAGAATAA` gave an E-score of -0.0467.
For `CACAGAAC`, the E-score was -0.00822.
`CTGTTTTC` gave an E-score of 0.125.
The E-score of `ATATTGGA` is reported as -0.106.
`ACACACAG` has an E-score of 0.0246.
With `ACTTGTCT` the E-score was -0.000395.
With `ATAGTAAG` the E-score was -0.0454.
With `AATACGTA` the E-score was -0.155.
For `AATATAGT`, the E-score was 0.000435.
With `AATTGATG` the E-score was 0.093.
The E-score of `ATTTGTTC` is reported as 0.0505.
With `ATTGATAA` the E-score was 0.114.
`ATGAGAAA` has an E-score of 0.0474.
For `CGTTTACC`, the E-score was -0.000775.
With `GGCTTTAA` the E-score was -0.0797.
For `CAAGATAG`, the E-score was -0.129.
For `GCGTTGCC`, the E-score was 0.0669.
For `GCATCTGA`, the E-score was -0.126.
The E-score of `CTCGGCCA` is reported as 0.288.
The E-score of `ACGATCTG` is reported as -0.168.
`GGCTCTAA` gave an E-score of 0.0518.
The E-score of `CGCCCCGA` is reported as 0.175.

Sample 3 — technique: RNA Bind-n-Seq; molecule type: RNA; matrix: in vitro; tested at: 365 nM; reference: no-protein control; reading: higher = stronger binding
Target: RNA binding protein fox-1 homolog 2, RRM domain, GST-SBP tag (RBFOX2, Homo sapiens, UniProt O43251-10, residues 100-194)
Setting: natural RNA segment, single round, ends assumed
Residues (chain): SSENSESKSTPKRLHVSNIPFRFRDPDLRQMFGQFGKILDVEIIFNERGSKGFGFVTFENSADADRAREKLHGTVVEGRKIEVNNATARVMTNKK
`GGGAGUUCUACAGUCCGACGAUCACGUCUCAUUUAAAGCAAAUUAAGUAGGACAAGCAAGUCAGUAAAAUAGAAGUAUUAAAAAGAAUCAUCCUUUAAAUCACAGAUCUUAUUUUGAGAUUAAAAAAAAUACUUGGAAUUCUCGGGUGCCAA`: “RBNS enrichment (R)” 0.289.
`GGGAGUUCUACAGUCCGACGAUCGGUGGGGGUCCUCUCUCCUGCCCCAGCUUCCACUCAGCCACCACAGUUGCCACACCAUGGGGUGGAGACGUGGGUCACCACGGGCUUGGGAGCAAGCGCCUUCUGCAGCAUGGAAUUCUCGGGUGCCAA`: “RBNS enrichment (R)” 1.7.
`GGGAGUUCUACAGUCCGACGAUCACAGAACUGCCCAAUCCAGGGGCUCUGGGAUAUGGCUGCCCGGGAUUACAGAAAGACACGGCACUGCCGUGCACACCCAUGCUGCUUAGAAGCCUAAGCCUCUGCCUUCAUGGAAUUCUCGGGUGCCAA`: “RBNS enrichment (R)” 0.2.
`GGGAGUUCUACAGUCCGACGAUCAGGCCGCAUGGAUGAGGCCGUGUGGCGGCCCUACUGACCGCCCUGGUGGACUCCUCCCGCUGGAGGCGGGGACCCUAACAACCUUCAAGACCAGUGAUGGGCCGGCUCCGUGGAAUUCUCGGGUGCCAA`: “RBNS enrichment (R)” 0.779.
`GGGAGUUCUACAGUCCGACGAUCUUCCCAGCCAUGUUGCUGCUUUUGGCAUGGUCGCUUCUCUGAGGUUCACCUAGGCUUUCACAGCAAAAGUUGGGUGGAAAGAGAAAUUUUUAUUUGUGAUGACACAAUAGUGGAAUUCUCGGGUGCCAA` — result for “RBNS enrichment (R)”: 0.25.
`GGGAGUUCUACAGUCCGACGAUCAGCUGUAACAAUCUGUGAGGAUUGAGAGGAUAGGCUGGUGCUUUGAAGAAAGGCCUUGUAAGUGACAAGACAGUCCCCUGGGAAGAAAGAGAAAGGAAAUGGGCUAUUGCUGGAAUUCUCGGGUGCCAA` — result for “RBNS enrichment (R)”: 0.596.
Under “RBNS enrichment (R)”, `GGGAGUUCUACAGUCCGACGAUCGCUGCAGCCCUGCUGGUCCCUUCAGCUCCACGCUGCUGCUCUGGCGAGGUUUUAAAGGGUGCCAUGGGCUCUCACGUCCUUCGUGUUGCAGUAUUUAUUUUUACUGGGUGUGGAAUUCUCGGGUGCCAA` is recorded as 0.404.
Under “RBNS enrichment (R)”, `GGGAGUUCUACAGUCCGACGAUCCUCUAGCCCCCAUCCAUCCUUCCCAUCUCCCAGCUAGAGGGAGAGCUGGGCUUUGGACAGAAAAGAGAAGGGGCUGGAGCAGACAGAGCACAGGACCUGUCCCUGUGAGCUGGAAUUCUCGGGUGCCAA` is recorded as 0.356.
`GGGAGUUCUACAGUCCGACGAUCAUGGGUCUGCUCACCACCCUCUUCAUGCUUUUCAUAUUCACCUAUGGUCUGCACAUGAUACUCAGCCUAAAGACCAUGGAUCGCUUUGAUGACCACAAGGGCCCCACCAUUGGAAUUCUCGGGUGCCAA`: “RBNS enrichment (R)” 0.303.
For `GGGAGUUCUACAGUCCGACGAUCUCCCCUUGCCUACAGGCCAGCACAUCCCUGGCUGCAGUGCCCAGCAGCUCCCAGCAUGCUCCGUGAUGUUCAGUGGGCAGCAUUACCCCCUCUGCUGCCUCCCGCCCCCGUGGAAUUCUCGGGUGCCAA`, “RBNS enrichment (R)” read 7.58.
`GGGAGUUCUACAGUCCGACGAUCUUGUGUGCCUUCACACCCGCCUACAGCCCCACCUCACCAUCAAGCGCUGAGCCAAUGCGGGUGUGGCUGGCCCUGAGUUCCUGAGUCAGCUCCUUGCCAGGGCCAGAGCUUGGAAUUCUCGGGUGCCAA` — result for “RBNS enrichment (R)”: 0.308.
For `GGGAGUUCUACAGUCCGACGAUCCCAGAGAGUAAGAAAGCCCAAAUCUGUUACAGCUUCUAAAAAAAUAGAUUUCUAAUUUGUCCUACUCAUGUUAGGAGCAUUAUCUUUGAAGGUAAAACAUAGUGUAUCAUUGGAAUUCUCGGGUGCCAA`, “RBNS enrichment (R)” read 1.07.

Sample 4 — technique: protein-binding microarray; molecule type: double-stranded DNA, one strand shown; matrix: in vitro; tested at: 0.8 µM; setting: whole 60-bp probe, no competitor; reading: higher = stronger binding
Target: Centromere-binding protein 1, full length, N-terminal tag (CBF1, Saccharomyces cerevisiae, UniProt P17106, residues 1-351)
Chain of UniProt P17106 (whole entry, looked up): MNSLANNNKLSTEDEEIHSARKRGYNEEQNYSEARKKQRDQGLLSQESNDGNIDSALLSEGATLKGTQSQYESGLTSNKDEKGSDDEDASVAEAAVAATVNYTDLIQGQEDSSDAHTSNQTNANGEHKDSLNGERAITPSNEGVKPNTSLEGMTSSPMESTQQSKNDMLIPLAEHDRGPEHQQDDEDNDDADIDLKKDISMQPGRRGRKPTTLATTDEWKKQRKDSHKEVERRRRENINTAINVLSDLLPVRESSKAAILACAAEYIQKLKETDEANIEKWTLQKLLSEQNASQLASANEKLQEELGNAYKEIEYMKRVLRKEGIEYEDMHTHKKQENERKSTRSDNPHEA
For `GAATAATTTGCTGATCACATTTGAATCAAAAAATAGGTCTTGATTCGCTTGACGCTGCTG`, the fluorescence intensity was 729 a.u.
With `CTATGTTAATAGATGCACGTTTCATTGACATCTTTCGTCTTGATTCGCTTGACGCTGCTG` the fluorescence intensity was 675 a.u.
`GAATGCATACGTCGTGGTGTTTATCTTTGATTGTAGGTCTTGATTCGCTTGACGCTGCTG` has a fluorescence intensity of 552 a.u.
`GAAGAAAGATATTTGAGCGTGCCTTCGTGAGAATAGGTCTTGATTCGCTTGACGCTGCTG` has a fluorescence intensity of 528 a.u.
For `GAACTTCTTTTTCGGCATGTGATAATATACTGGTAGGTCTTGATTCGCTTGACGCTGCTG`, the fluorescence intensity was 2090 a.u.
For `GAACGTATTTGCGCTCACGTTGCACGAACACGGTAGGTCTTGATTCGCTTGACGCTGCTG`, the fluorescence intensity was 1330 a.u.
For `GAATAGTTTTACAGACGCGTCACCTGCTATCAATAGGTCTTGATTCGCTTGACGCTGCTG`, the fluorescence intensity was 2790 a.u.
With `GAAAAAATCCCCAGGCGGGTGACACTTAAGTACTAGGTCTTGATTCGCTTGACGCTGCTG` the fluorescence intensity was 477 a.u.
The fluorescence intensity of `GAAGGCTTTGAACGTGATTTTCCCAAACCCTGTTAGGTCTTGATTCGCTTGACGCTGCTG` is reported as 785 a.u.
The fluorescence intensity of `GAACATTCGTAACCATGTGAGATGCTCAAATGTTAGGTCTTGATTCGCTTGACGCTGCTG` is reported as 769 a.u.
`GAAATTTTGTTCTGTCACCTTTGTGGATGTCTTTAGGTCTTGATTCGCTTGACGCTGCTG` has a fluorescence intensity of 543 a.u.
For `GAATTGGAAACCAAACAGGAGATACAAATGGGTTAGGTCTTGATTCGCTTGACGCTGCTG`, the fluorescence intensity was 537 a.u.
`CTAAAAGGTGCCAGTGACGTGATGGTTACGCCTTTCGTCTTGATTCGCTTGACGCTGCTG` gave a fluorescence intensity of 547 a.u.
With `CTACGTTTCTGCCGTCACGTTTCCTATTATCACTTCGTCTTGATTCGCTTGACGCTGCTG` the fluorescence intensity was 2290 a.u.
With `CTAGTAAATAGAACACACGTTTTTTAATTTATTTTCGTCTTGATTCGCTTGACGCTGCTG` the fluorescence intensity was 652 a.u.
`CTAATTTAACTTAGCTGCATCACCGTTGAGCCTTTCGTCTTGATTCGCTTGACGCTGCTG` gave a fluorescence intensity of 528 a.u.
`GAAATGTTTATATGTAATCAGCTGTATTTATATTAGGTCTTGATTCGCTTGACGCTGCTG` gave a fluorescence intensity of 625 a.u.
With `CTAATCTATTATTTATACGTGACATACCATTACTTCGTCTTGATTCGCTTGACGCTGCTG` the fluorescence intensity was 719 a.u.
`CTAAATGTCAATAATCACACGTCGTTATAAGCATTCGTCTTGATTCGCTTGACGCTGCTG` has a fluorescence intensity of 574 a.u.
`GAAAACCATCCACTTCACGAGACTGATCTCCTCTAGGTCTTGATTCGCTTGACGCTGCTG` gave a fluorescence intensity of 578 a.u.
The fluorescence intensity of `GAATTAGGTTGATGCCACGCACGACAATGTAGCTAGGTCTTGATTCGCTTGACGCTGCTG` is reported as 511 a.u.
For `CTAGCGCTCCTGCCGCACGCTTTGTTCCTTTTCTTCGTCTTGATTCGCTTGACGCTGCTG`, the fluorescence intensity was 516 a.u.
`CTAGGAAACGGTTCCTTCGTGACAATTCTAGAATTCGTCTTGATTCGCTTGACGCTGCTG` gave a fluorescence intensity of 535 a.u.
With `GAAACTATTCCTCCCCACTCACGTCTATAGTCCTAGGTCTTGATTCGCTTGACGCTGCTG` the fluorescence intensity was 490 a.u.

Repeated from above (sample 2):
`CACGACCG` gave an E-score of -0.0751.
`TAGAATAA` gave an E-score of -0.0467.
For `CACAGAAC`, the E-score was -0.00822.
`CTGTTTTC` gave an E-score of 0.125.
The E-score of `ATATTGGA` is reported as -0.106.
